Published values pooled from the literature.
Lines come from different studies, so protocols differ.

| SMILES | method | species | sample | concentration | pH | notes | hepatic clearance [mL/min/kg] |
| --- | --- | --- | --- | --- | --- | --- | --- |
| CN1CCN(C(=O)c2ccc(C3CCCCC3)cc2)CC1=O | hepatocyte stability | – | cryopreserved rat hepatocytes | 1 µM | – | – | 44 |
| O=C(c1ccc(F)cc1)C1CCN(CCn2c(=O)[nH]c3ccccc3c2=O)CC1 | – | – | monkey liver microsomes | – | – | – | 26.5 |
| c1ccc2c(c1)ccc1c3ccccc3ccc21 | – | developing zebrafish | liver | – | – | – | 8610 |
| OCc1nc2ccc(NCc3ccc(C(F)(F)F)cc3)cc2[nH]1 | – | – | human liver S9 | 1 µM | pH 7.4 | – | 6.33 |
| CN1CCN(C(=O)c2ccc([C@H]3[C@@H](F)[C@@H](F)C[C@@H](F)[C@H]3F)cc2)CC1=O | liver microsome stability | – | cynomolgus liver microsomes | 1 µM | – | – | 4.9 |
| COc1cc(-c2cc(C(C)=O)n3ccccc23)c(OC)cc1Cn1ccnc1 | – | – | rat liver microsomes | 1 µM | pH 7.4 | – | 55.5 |
| O=C1CC[C@H](N2Cc3cc(N4CCN(CC5CCN(c6ccc([C@@H]7c8ccc(O)cc8CC[C@@H]7c7ccccc7)cc6)CC5)CC4)ccc3C2=O)C(=O)N1 | – | – | cryopreserved Sprague-Dawley rat hepatocytes | 1 µM | – | corrected for fu | 13.7 |
| O=C(Nc1ccc(C2CCCCC2)cc1)c1cn[nH]c1 | – | – | cryopreserved mouse hepatocytes | 1 µM | – | – | 52 |
| c1ccc2c(c1)ccc1ccccc12 | – | developing zebrafish | liver | – | – | – | 134 |

Excerpt of the above:
| SMILES | method | species | sample | concentration | pH | notes | hepatic clearance [mL/min/kg] |
| --- | --- | --- | --- | --- | --- | --- | --- |
| CN1CCN(C(=O)c2ccc(C3CCCCC3)cc2)CC1=O | hepatocyte stability | – | cryopreserved rat hepatocytes | 1 µM | – | – | 44 |
